Measured values gathered from unrelated publications.
Every numbered part comes from another study and shows a few of its results, in no order. Positions count from the first letter of the parent shown.

Series 1 — method: EMSA with sequencing; form: double-stranded DNA, one strand shown; sample: in vitro; concentration: 10 and 20 nM; reference: negative control set to 0; reading: higher = stronger binding
Target: Hepatocyte nuclear factor 3-alpha (Foxa1, Mus musculus, UniProt P35582, residues 1-468, full length assumed)
Sequence of UniProt P35582 (whole entry, looked up): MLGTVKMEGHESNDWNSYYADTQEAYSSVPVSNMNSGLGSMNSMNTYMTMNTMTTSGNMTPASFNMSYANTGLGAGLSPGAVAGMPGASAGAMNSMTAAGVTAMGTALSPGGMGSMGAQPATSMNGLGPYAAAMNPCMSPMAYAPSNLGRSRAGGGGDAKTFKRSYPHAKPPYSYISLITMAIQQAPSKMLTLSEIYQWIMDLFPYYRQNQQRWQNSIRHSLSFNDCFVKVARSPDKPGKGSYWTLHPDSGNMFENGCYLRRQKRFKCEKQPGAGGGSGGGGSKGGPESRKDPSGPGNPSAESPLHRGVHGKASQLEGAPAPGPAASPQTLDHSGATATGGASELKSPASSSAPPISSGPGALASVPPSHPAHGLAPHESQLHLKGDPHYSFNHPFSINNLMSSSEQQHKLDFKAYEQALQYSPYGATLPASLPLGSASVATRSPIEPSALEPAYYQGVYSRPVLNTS
Notes: whole designed probe, mean of two concentrations, ends assumed
| Oligonucleotide | normalised bound fraction |
| --- | --- |
| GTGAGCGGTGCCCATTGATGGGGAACTTCTACTGATGTTGTGGCTTTGGTCATGTCCATCATCACTTTATGACCATTATAAGGTCAAATTCAATTGCTTCTGTTTTTGTTTGTTTGTTTGTTTACTTTGATCCCTATCTATATTTTTTGGGGGGATGCTTGTGAATTATCTTAGGAAAGGCAAATGCTCATGTATGTCATATTCTAGCCATAAATCAAGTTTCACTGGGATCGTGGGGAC | 0.534 ratio |
| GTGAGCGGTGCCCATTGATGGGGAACCCCTCATCCTGGGTGTCGGGGTGGGAGGTGTTCTCATCATGAATGGGAGGCGTACCCAGATCCAGCTCTGCCTTTTTTTAACCAAACCAGAGTGTAAACAAATGGCTGTTAATCGAGTGACTCACCACATAGCAAGATATGATACATGCCAGGAGAGAAAAAGAAAGTGCTGATGGAAAAATAATCTCATTAGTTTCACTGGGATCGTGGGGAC | 0.342 ratio |
| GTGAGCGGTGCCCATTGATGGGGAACATTATTTCATTATACAAATATAAATGTCATTCTTTGATTTTAGAAGAAATCATGATATGTCATTCTATTGAGTGCTAACTAAAAGTTCCCTTTGTTTACTTAGCTTTCTCTTAGTCATAAGAAAGAAGAAGATCTCTTGCGTGAAAACAGCATGTTGCGGGAAGAAATTGCCATGCTAAGACTGGAACTAGATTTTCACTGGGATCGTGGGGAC | 0.533 ratio |
| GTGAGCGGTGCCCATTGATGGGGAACTCCCATCTAAGAAGGATGCTGGCTTCTCCTGCTGTTGGTCTGTTTACACCAAACTGACTTGATATTTTTATCTGTTTACGAAGTGGTGCAAAATGTTTACATAGTAGTGACCTGGTTTCTGTGGATCTGGGAGTGCTGTTTGCAGTAGAATGTTTGCTAATCTTCCGTGACGCTCTAATCGTTTGTATTTAGTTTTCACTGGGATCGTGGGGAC | 0.489 ratio |
| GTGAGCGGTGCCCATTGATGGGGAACGCATCGAAATGTTTGTTAAGCCCATTGGAAGAACAGTACATCCTGGAACTATTATTGGCAAAGCAAATAGTGAGTGGCATTCAGAGTTTATGCTGTTTGCTCTGTGATACTGCTGGTATGAGTTTATGTCACACACAGGAGTTACCAAGAGGTGGCTCTTTCTGGGCTGGGCAATAGCTGTTTGTTCTTCAATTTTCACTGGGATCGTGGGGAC | 0.374 ratio |
| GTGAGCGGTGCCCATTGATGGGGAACGGATTAAGTGGGCAGAAATTTTTTAGGAAGAAGTGTAGAAAAAATTCTGAGGCTTTGTCTTTCCAACTAAGATGACTAAAGGGATAATTTCTAAGTAAACAGGGATGCAAGGAACAATTAATTTATTTTTAACCAGAATAGTGATTTAAGTCTAACACGTTCTTGAATAACAATTTTCAAACTCCAGGAAAACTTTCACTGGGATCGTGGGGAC | 0.183 ratio |
| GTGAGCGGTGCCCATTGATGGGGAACTTTATGATCTGAGTATATATAGTAAGTACCTCCCCTTTCAGGGTAAGGCAGTAGGTAATGGTGAACAGGGAAGCAAAAGGTGACTCAGGTTGAGTAATCTACACCAAGCATATCTGACTCAAGGAATGCTTCAGAGGCCAGGGGTGCATGCCTGTAATCCCAGCACCTTGGAAGGCTGACACAGGAGGATCACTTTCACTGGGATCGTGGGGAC | -0.0558 ratio |
| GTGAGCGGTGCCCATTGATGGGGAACACCCATGTTTTAATAATCCAGAACATCAGTTGAGTACAAAATCTCTTTTTCTAATTAAGAATGTTTGACCACAAGAGGGAGTTCCTTGCCAACTGTTTACTTAGCCTCAGCAGATATGATGGGCCAGAATTTACACAGAAAAATACCTTCAAATATATTTAGTTTCTTCAGTGCTTTTAGATTGAGAAAATGATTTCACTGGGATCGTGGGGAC | 0.428 ratio |

Series 2 — method: DHFR PCA, deep sequencing; sample: yeast; added: (+)-ABA 4.8 µM; reference: wild-type fitted maximum; reading: higher = stronger binding
Target: ABI1, truncated, D143A, DHFR fusion (Arabidopsis thaliana)
Notes: methotrexate growth selection, single substitutions
Starting sequence: PYL1, truncated, DHFR fusion (Arabidopsis thaliana); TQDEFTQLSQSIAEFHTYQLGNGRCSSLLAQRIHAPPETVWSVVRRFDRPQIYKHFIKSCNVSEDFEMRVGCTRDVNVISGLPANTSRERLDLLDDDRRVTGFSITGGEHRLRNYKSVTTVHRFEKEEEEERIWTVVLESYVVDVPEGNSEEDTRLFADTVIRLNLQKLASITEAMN
| Variant | relative binding score |
| --- | --- |
| G108D | 4.01% |
| K116C | 18.3% |
| D92V | 4.73% |
| R32Q | 68.5% |
| Q31W | 13.6% |
| G21T | 74.4% |
| R123Y | 45.3% |
| S87T | 28.3% |
| V136K | -6.64% |
| C25F | 12.6% |
| E147Y | 59.2% |
| H16I | -0.199% |
| I33F | -4.45% |
| D92Q | 17.6% |
| G102T | -11.6% |

Series 3 — target: CCNB2, cyclin fold, Cln2 fusion (human); method: yeast growth competition, sequencing; sample: yeast; notes: weak parent motif; reference: not given; reading: higher = stronger binding
Starting sequence: PKN2 docking peptide (human); VSAVQKLDFSDTM
| Variant | normalised enrichment score |
| --- | --- |
| VSAVQGLDFSDTM [K6G] | -0.274 |
| VSAVQILDFSDTM [K6I] | -0.533 |
| VVAVQKLDFSDTM [S2V] | 0.0778 |
| VSAFQKLDFSDTM [V4F] | -0.00518 |
| VWAVQKLDFSDTM [S2W] | -0.264 |
| VTAVQKLDFSDTM [S2T] | 0.308 |
| VSAVQKLDFSDFM [T12F] | -0.181 |
| VSAVQKEDFSDTM [L7E] | -0.0906 |
| VSAVQKLWFSDTM [D8W] | 0.0837 |
| VSAVQKLDLSDTM [F9L] | -0.0856 |
| VSAVQKLDFSPTM [D11P] | 0.0813 |
| VSAVQKLDFSDTS [M13S] | -0.00152 |
| VSAVQKLDFSQTM [D11Q] | -0.42 |
| VSAVQWLDFSDTM [K6W] | -0.24 |

Series 4 — method: RNAcompete; form: RNA; sample: in vitro; concentration: 20 nM; notes: 7-mer, probes averaged, single round; reference: mean of 7-mers; reading: higher = stronger binding
Target: PABPC1L2, full length, GST fusion (mouse, UniProt A0ABA7IW68)
Construct (chain): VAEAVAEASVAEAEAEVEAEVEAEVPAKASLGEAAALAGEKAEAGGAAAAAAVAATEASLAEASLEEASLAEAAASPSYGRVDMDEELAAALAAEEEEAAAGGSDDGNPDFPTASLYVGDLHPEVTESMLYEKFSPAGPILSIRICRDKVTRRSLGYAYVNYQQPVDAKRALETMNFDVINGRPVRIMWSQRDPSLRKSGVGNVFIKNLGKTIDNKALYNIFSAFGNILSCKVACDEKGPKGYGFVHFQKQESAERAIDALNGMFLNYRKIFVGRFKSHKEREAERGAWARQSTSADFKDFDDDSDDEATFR
| Oligonucleotide | 7-mer Z-score |
| --- | --- |
| UUGGGAU | 0.0315 |
| AACAAUG | 1.11 |
| CUCUUCC | -0.595 |
| CGUGUAC | -0.226 |
| CAUCGAU | -0.179 |
| AUAAGUC | -0.0138 |
| UCGGUGU | -0.104 |
| GACUUCC | -0.273 |
| UCGGACC | -0.204 |
| CAGCACG | 0.046 |
| AUCACAA | 0.354 |
| AUGUUUG | -0.431 |
| UCAGAGA | -0.0246 |
| UACGCAC | -0.104 |
| GGCUGUU | -0.104 |
| UGUGUUC | -0.469 |
| ACUAGGU | -0.19 |
| UUCCUGA | -0.184 |

Series 5 — method: RNA Bind-n-Seq; form: RNA; sample: in vitro; concentration: 1 µM; notes: whole 134-nt RNA, ends assumed; added: 150 mM KCl; reference: input library; reading: higher = stronger binding
Target: Ras GTPase-activating protein-binding protein 1, RRM domain (G3BP1, Homo sapiens, UniProt Q13283)
Sequence of UniProt Q13283 (whole entry, looked up): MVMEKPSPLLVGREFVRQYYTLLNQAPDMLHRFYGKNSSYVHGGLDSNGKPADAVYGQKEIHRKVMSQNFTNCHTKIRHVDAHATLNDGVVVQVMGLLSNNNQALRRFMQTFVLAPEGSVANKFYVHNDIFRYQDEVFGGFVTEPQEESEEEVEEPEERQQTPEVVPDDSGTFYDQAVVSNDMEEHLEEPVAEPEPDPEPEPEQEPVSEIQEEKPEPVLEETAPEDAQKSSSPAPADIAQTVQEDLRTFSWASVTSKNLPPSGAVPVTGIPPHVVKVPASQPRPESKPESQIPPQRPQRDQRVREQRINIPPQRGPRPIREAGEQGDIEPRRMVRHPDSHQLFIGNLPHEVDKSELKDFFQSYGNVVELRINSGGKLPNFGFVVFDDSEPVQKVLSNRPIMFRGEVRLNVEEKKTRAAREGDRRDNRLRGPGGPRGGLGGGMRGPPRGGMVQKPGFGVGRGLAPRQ
| Oligonucleotide | log2 enrichment |
| --- | --- |
| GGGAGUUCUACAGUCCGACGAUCUUGGAUGAAGAUGGCAAAGUCCUGACCCCGGAGGAGCUGCUCUACCGGGUAAGGGGGCCUCCUCUGCCAGACCCUAGAGACCUCUCUGGGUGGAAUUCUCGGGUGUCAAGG | -0.715 |
| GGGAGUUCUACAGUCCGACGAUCAGUCCUGUGCUACACAUCGUAUGUACCGAAUCGGGGAAAAAGGGGUUUGGGGUGGGGAAAGUAUUAUGUUACGCCGUUCGGAUCUGCACUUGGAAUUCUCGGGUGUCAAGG | 1.12 |
| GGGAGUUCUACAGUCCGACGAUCCAAGUCCUGUGCUACACAUCGUAUGUACCGAAUCGGGUUUGGGUUUGGGGUUUGGAAAGUAUUAUGUUACGCCGUUCGGAUCUGCACUUCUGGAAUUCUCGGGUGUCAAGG | -0.422 |
| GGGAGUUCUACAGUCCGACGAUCUAACUUUAGAGGAGGAUCUGAUGGAUAUGGCAGUGGACGUGGAUUUGGGGAUGGCUAUAAUGGGUAUGGAGGAGGACCUGGCGGUGGCAAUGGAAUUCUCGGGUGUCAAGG | -0.345 |
| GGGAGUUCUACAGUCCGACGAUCCCUCAAGUCCUGUGCUACACAUCGUAUGUACCGAAUCGGGAGGGUGGGUGGGAAAGUAUUAUGUUACGCCGUUCGGAUCUGCACUUCCAGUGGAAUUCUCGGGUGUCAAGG | -0.198 |
| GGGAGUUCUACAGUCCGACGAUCGUCCUGUGCUACACAUCGUAUGUACCGAAUCGGGGUUUGGGGUUUGGGGUUUUUGGGGAAAGUAUUAUGUUACGCCGUUCGGAUCUGCACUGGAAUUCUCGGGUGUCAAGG | 2.18 |
| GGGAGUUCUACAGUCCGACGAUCCCUGUGCUACACAUCGUAUGUACCGAAUCGGGGUUUUUGGGGUUUUUGGGGUUUUUGGGGAAAGUAUUAUGUUACGCCGUUCGGAUCUGCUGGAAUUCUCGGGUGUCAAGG | 1.01 |
| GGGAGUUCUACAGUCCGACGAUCACCAUGCAGGUGGGCAUCUUUGGGAAGUGGGGCAAGGGGGGGAUAGAAAGGGGGGUAACACUUUGGGAACAGGUGGUCCCAGGUCGUUUCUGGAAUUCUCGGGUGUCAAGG | -0.263 |
| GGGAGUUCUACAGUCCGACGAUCAAGUCCUGUGCUACACAUCGUAUGUACCGAAUCGGGGUGGGGAAAAAGGGGUGGGGAAAGUAUUAUGUUACGCCGUUCGGAUCUGCACUUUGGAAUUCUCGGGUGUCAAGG | 0.808 |

Repeated from above (series 4):
| Oligonucleotide | 7-mer Z-score |
| --- | --- |
| CUCUUCC | -0.595 |
| CGUGUAC | -0.226 |
| CAUCGAU | -0.179 |
| AUAAGUC | -0.0138 |
| UCGGUGU | -0.104 |
| GACUUCC | -0.273 |
